{"data": "Measurements of several laboratories", "note": "Numbered parts are unrelated; each lists some results of a single study. Substitutions count along the parent as printed."}
{"data": "Sample 1", "target": "JDP2, bZIP domain (human)", "method": "DHFR protein complementation", "medium": "yeast", "notes": "single substitutions, most at no-binding floor", "reference": "wild-type JUN-FOS pair", "reading": "higher = stronger binding", "parent": "JUN, bZIP domain (human); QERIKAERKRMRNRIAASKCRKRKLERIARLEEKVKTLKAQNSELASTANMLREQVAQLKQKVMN; partner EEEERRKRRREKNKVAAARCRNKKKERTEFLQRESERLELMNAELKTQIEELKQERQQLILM"}
{"Variant": "K34M", "binding fitness": "0.249 natural log"}
{"Variant": "K39H", "binding fitness": "0.295 natural log"}
{"Variant": "V35F", "binding fitness": "0.182 natural log"}
{"Variant": "R53Y", "binding fitness": "0.188 natural log"}
{"Variant": "R30T", "binding fitness": "0.399 natural log"}
{"Variant": "S47C", "binding fitness": "0.29 natural log"}
{"Variant": "E54F", "binding fitness": "0.124 natural log"}
{"Variant": "I28Q", "binding fitness": "0.341 natural log"}
{"Variant": "I28F", "binding fitness": "0.207 natural log"}
{"Variant": "N42V", "binding fitness": "0.127 natural log"}
{"Variant": "A49M", "binding fitness": "0.233 natural log"}
{"Variant": "E33R", "binding fitness": "0.242 natural log"}
{"data": "Sample 2", "target": "ABI1, truncated, D143A, DHFR fusion (Arabidopsis thaliana)", "method": "DHFR PCA, deep sequencing", "medium": "yeast", "notes": "methotrexate growth selection, single substitutions", "together with": "(+)-ABA 710 µM", "reference": "wild-type fitted maximum", "reading": "higher = stronger binding", "parent": "PYL1, truncated, DHFR fusion (Arabidopsis thaliana); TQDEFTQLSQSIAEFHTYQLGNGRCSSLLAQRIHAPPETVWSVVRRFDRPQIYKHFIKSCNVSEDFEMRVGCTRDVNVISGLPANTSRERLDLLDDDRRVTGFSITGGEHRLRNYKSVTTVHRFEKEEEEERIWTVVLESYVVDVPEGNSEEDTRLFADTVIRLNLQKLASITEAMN; partner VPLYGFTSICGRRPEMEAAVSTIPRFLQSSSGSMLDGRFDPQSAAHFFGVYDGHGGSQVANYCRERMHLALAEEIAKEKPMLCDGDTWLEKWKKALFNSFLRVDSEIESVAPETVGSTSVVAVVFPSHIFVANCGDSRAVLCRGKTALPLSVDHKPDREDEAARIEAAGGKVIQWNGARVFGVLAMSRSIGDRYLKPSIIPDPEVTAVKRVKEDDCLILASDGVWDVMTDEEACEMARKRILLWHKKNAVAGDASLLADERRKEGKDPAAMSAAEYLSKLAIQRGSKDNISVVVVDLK"}
{"Variant": "N85S", "relative binding score [%]": 102}
{"Variant": "Q19S", "relative binding score [%]": 105}
{"Variant": "D48S", "relative binding score [%]": 88.6}
{"Variant": "I172V", "relative binding score [%]": 101}
{"Variant": "W41R", "relative binding score [%]": -3.69}
{"Variant": "V70A", "relative binding score [%]": 96.3}
{"Variant": "P146M", "relative binding score [%]": 64.8}
{"Variant": "L8W", "relative binding score [%]": 99.7}
{"Variant": "I33Y", "relative binding score [%]": 26.2}
{"Variant": "T119L", "relative binding score [%]": 106}
{"Variant": "R155F", "relative binding score [%]": 60.8}
{"Variant": "K54H", "relative binding score [%]": 17}
{"Variant": "D95L", "relative binding score [%]": 101}
{"Variant": "V100H", "relative binding score [%]": 89.4}
{"data": "Sample 3", "target": "Runt-related transcription factor 3, Runt domain (RUNX3, Homo sapiens, UniProt Q13761, residues 53-186)", "method": "protein-binding microarray", "form": "hairpin DNA", "medium": "in vitro", "concentration": "not given", "notes": "whole hairpin DNA, median over replicate spots", "reference": "not given", "reading": "higher = stronger binding", "chain of UniProt Q13761 (53-186, looked up)": "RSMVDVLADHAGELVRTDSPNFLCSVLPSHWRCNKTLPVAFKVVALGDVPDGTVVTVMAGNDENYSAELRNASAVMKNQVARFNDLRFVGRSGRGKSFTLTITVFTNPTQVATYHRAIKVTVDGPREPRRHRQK"}
{"Strand": "GAGGCCTGTAGCGGTTGGCCTCCTGGCCAACCGCTACAGGCCTCACACTC", "median fluorescence [a.u.]": 5420}
{"Strand": "GAGGCCTGTTGCGGTCGGCCTCCTGGCCGACCGCAACAGGCCTCACACTC (5mC at 16 28)", "median fluorescence [a.u.]": 9440}
{"Strand": "CTCAGTACTGTGGGCTGGACTCCTGTCCAGCCCACAGTACTGAGACACTC", "median fluorescence [a.u.]": 3950}
{"Strand": "GAGGCCTGTTGTCGTTGGCCTCCTGGCCAACGACAACAGGCCTCACACTC (5mC at 13)", "median fluorescence [a.u.]": 4540}
{"Strand": "CTCAGTTCTGTGTGCTGGACTCCTGTCCAGCACACAGAACTGAGACACTC", "median fluorescence [a.u.]": 3880}
{"Strand": "CTCAGTTCTGTGGCCTGGACTCCTGTCCAGGCCACAGAACTGAGACACTC", "median fluorescence [a.u.]": 3980}
{"Strand": "GAGGCCTGTGGCGGTTGGCCTCCTGGCCAACCGCCACAGGCCTCACACTC (5mC at 35)", "median fluorescence [a.u.]": 5960}
{"Strand": "GAGGCCTAACCGCAACAGCCTCCTGGCTGTTGCGGTTAGGCCTCACACTC", "median fluorescence [a.u.]": 13300}
{"Strand": "GAGGCCCAACCGTAACAGCCTCCTGGCTGTTACGGTTGGGCCTCACACTC", "median fluorescence [a.u.]": 4260}
{"Strand": "GAGGCCCAACCGCCACAGCCTCCTGGCTGTGGCGGTTGGGCCTCACACTC", "median fluorescence [a.u.]": 6300}
{"Strand": "GAGGCCTCGCGCGGTTGGCCTCCTGGCCAACCGCGCGAGGCCTCACACTC (5mC at 8)", "median fluorescence [a.u.]": 4950}
{"Strand": "GAGGCCCAACCGCGACAGCCTCCTGGCTGTCGCGGTTGGGCCTCACACTC (5mC at 13)", "median fluorescence [a.u.]": 6180}
{"Strand": "GAGGCCTGTCGCGGTTGGCCTCCTGGCCAACCGCGACAGGCCTCACACTC (5mC at 5)", "median fluorescence [a.u.]": 6520}
{"Strand": "GAGGCCTTTTGCGGTTGGCCTCCTGGCCAACCGCAAAAGGCCTCACACTC", "median fluorescence [a.u.]": 8760}
{"Strand": "CTCAGTTCCGTGGGCTGGACTCCTGTCCAGCCCACGGAACTGAGACACTC", "median fluorescence [a.u.]": 4450}
{"data": "Sample 4", "target": "CCNF, cyclin fold, Cln2 fusion (human)", "method": "yeast growth competition, sequencing", "medium": "yeast", "notes": "strong parent motif", "reference": "not given", "reading": "higher = stronger binding", "parent": "RB1 docking peptide (human); PKPLKKLRFDIEG"}
{"Variant": "P1R", "normalised enrichment score": 1.8}
{"Variant": "F9P", "normalised enrichment score": 0.354}
{"Variant": "E12N", "normalised enrichment score": 1.63}
{"Variant": "F9Y", "normalised enrichment score": -0.16}
{"Variant": "D10L", "normalised enrichment score": 2.92}
{"Variant": "K6R", "normalised enrichment score": 1.33}
{"Variant": "F9K", "normalised enrichment score": 1.3}
{"Variant": "P3Q", "normalised enrichment score": 0.989}
{"Variant": "L4N", "normalised enrichment score": 4.04}
{"Variant": "F9S", "normalised enrichment score": 0.746}
{"Variant": "L4V", "normalised enrichment score": 3.83}
{"Variant": "D10Q", "normalised enrichment score": 1.26}
{"Variant": "P1Q", "normalised enrichment score": 2.2}
{"Variant": "L7D", "normalised enrichment score": -0.529}
{"Variant": "P3M", "normalised enrichment score": 1.08}
{"Variant": "K6N", "normalised enrichment score": 0.378}
{"Variant": "K6W", "normalised enrichment score": 1.62}
{"Variant": "K5R", "normalised enrichment score": 6.33}
{"Variant": "K5E", "normalised enrichment score": 0.247}
{"Variant": "L7R", "normalised enrichment score": 0.872}
{"data": "Sample 5", "target": "Histone acetyltransferase KAT6A, winged helix 1, GST fusion (KAT6A, Homo sapiens, UniProt Q92794, residues 1-85)", "method": "protein binding microarray", "form": "double-stranded DNA, one strand shown", "medium": "in vitro", "concentration": "not given", "notes": "8-mer, flanks averaged, mean of 2 arrays, mostly near background", "reference": "not given", "reading": "higher = stronger binding", "Residues (chain)": "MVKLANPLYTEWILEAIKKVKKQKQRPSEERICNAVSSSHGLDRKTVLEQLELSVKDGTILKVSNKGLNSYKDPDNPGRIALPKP"}
{"Strand": "TTACGGAA", "E-score": 0.182}
{"Strand": "CGCAGGCG", "E-score": 0.263}
{"Strand": "GAGGGATC", "E-score": -0.0668}
{"Strand": "GACCAACC", "E-score": -0.0403}
{"Strand": "CACTTTCC", "E-score": -0.106}
{"Strand": "ATCCTGGA", "E-score": -0.211}
{"Strand": "CCGCAAGC", "E-score": 0.201}
{"Strand": "AGCGTCAC", "E-score": 0.131}
{"Strand": "CATCCCAC", "E-score": -0.0241}
{"Strand": "AACACGCA", "E-score": 0.0942}
{"Strand": "AAAGGACG", "E-score": -0.0707}
{"Strand": "CCTTTCCA", "E-score": -0.0629}
{"Strand": "ATCTTCCA", "E-score": -0.106}
{"Strand": "ATGCATTG", "E-score": -0.279}
{"Strand": "ACCTACCT", "E-score": -0.0655}
{"Strand": "GCGCACTA", "E-score": 0.373}
{"Strand": "GCTGTACA", "E-score": 0.011}
{"Strand": "ACTCCAGA", "E-score": -0.197}
{"Strand": "AGAACGGG", "E-score": 0.23}
{"Strand": "CACGCTGA", "E-score": 0.0903}
{"Strand": "TGCCATAA", "E-score": -0.0995}
{"Strand": "AGAAGCAC", "E-score": -0.189}
{"Strand": "ATAGGGCG", "E-score": 0.018}
{"Strand": "AAGGTGTG", "E-score": -0.181}
{"note": "For quick reference, copied from above (sample 2):"}
{"Variant": "Q19S", "relative binding score [%]": 105}
{"Variant": "D48S", "relative binding score [%]": 88.6}
{"Variant": "I172V", "relative binding score [%]": 101}
{"Variant": "W41R", "relative binding score [%]": -3.69}
{"Variant": "V70A", "relative binding score [%]": 96.3}
{"Variant": "P146M", "relative binding score [%]": 64.8}
{"Variant": "L8W", "relative binding score [%]": 99.7}
{"Variant": "I33Y", "relative binding score [%]": 26.2}
{"Variant": "T119L", "relative binding score [%]": 106}
{"Variant": "R155F", "relative binding score [%]": 60.8}
